{"data": "Measurements collected from several papers", "organism": "Staphylococcus epidermidis", "note": "Lines come from different studies, so protocols differ. ± marks the error that the study gave."}
{"Structure (SMILES)": "NC(=S)n1nc(-c2ccccc2)cc1O", "assay": "broth microdilution, agar subculture", "test system": "ATCC 12228", "conditions": "24 h", "quantity": "MBC", "result": "1000 µg/mL"}
{"Structure (SMILES)": "O=C(O)CN1C(=O)C(=C2C(=O)N(Cc3ccccc3Cl)c3ccccc32)SC1=S", "assay": "microbial growth", "test system": "ATCC12228", "conditions": "6 h", "quantity": "IC50", "result": "12 µM"}
{"Structure (SMILES)": "CCc1cc(=O)c2c(OCC(O)CNC(C)(C)C)c3ccoc3c(OC)c2o1 (stereo not shown)", "assay": "broth microdilution", "test system": "ATCC 35984", "conditions": "19 h, 35 °C", "quantity": "MIC", "result": "> 256 µg/mL"}
{"Structure (SMILES)": "Cc1ccc(C(C)C)cc1.Cc1ccc(C(C)C)cc1.[Cl][Ru][Cl].[Cl][Ru][Cl]", "assay": "broth microdilution, agar subculture", "test system": "ATCC 12228", "quantity": "MBC", "result": "> 1000 µg/mL"}
{"Structure (SMILES)": "CN[C@H](CC(C)C)C(=O)N[C@H]1C(=O)N[C@@H](CC(N)=O)C(=O)N[C@H]2C(=O)N[C@H]3C(=O)N[C@H](C(=O)N[C@H](C(=O)O)c4cc(O)cc(O)c4-c4cc3ccc4O)[C@H](O)c3ccc(c(Cl)c3)Oc3cc2cc(c3O[C@@H]2O[C@H](CO)[C@@H](O)[C@H](O)[C@H]2O[C@H]2C[C@](C)(N)[C@H](O)[C@H](C)O2)Oc2ccc(cc2Cl)[C@H]1O", "test system": "BHI agar", "conditions": "48 h", "quantity": "MIC", "result": "8 µg/mL"}
{"Structure (SMILES)": "Cc1cc(C)n(C(N)=S)n1.Cc1ccc(C(C)C)cc1.[Cl][Ru][Cl]", "assay": "broth microdilution, agar subculture", "test system": "ATCC 12228", "quantity": "MBC", "result": "125 µg/mL"}
{"Structure (SMILES)": "CCc1cc(=O)c2c(OCC(O)CN3CCOCC3)c3ccoc3c(OC)c2o1 (stereo not shown)", "assay": "broth microdilution", "test system": "ATCC 35984", "conditions": "19 h, 35 °C", "quantity": "MIC", "result": "> 256 µg/mL"}
{"Structure (SMILES)": "O=C(O)CCCN1C(=O)C(=C2C(=O)N(Cc3ccc(Cl)cc3)c3ccccc32)SC1=S", "assay": "microbial growth", "test system": "ATCC12228", "conditions": "6 h", "quantity": "IC50", "result": "15.7 µM"}
{"Structure (SMILES)": "CCc1cc(=O)c2c(OCC3CO3)c3ccoc3c(OC)c2o1 (stereo not shown)", "assay": "broth microdilution", "test system": "ATCC 35984", "conditions": "19 h, 35 °C", "quantity": "MIC", "result": "> 256 µg/mL"}
{"Structure (SMILES)": "CCOC(=O)c1c(N)csc1-c1cn(-c2ccccc2)nc1-c1ccc(C)cc1", "assay": "broth microdilution", "test system": "clinical urinary isolate", "conditions": "compound gamma-irradiated 15 kGy", "quantity": "MIC", "result": "0.124 ± 0.3 µg/mL"}
{"note": "A few entries again:"}
{"Structure (SMILES)": "O=C(O)CCCN1C(=O)C(=C2C(=O)N(Cc3ccc(Cl)cc3)c3ccccc32)SC1=S", "assay": "microbial growth", "test system": "ATCC12228", "conditions": "6 h", "quantity": "IC50", "result": "15.7 µM"}
